Experimental data collected from several papers.
Each numbered part is a random draw from the data of one study; scales do not carry over between parts. Substitutions count along the parent as printed.

Block 1
Target: ABI1, truncated, D143A, DHFR fusion (Arabidopsis thaliana)
Technique: DHFR PCA, deep sequencing
Sample: yeast
Notes: methotrexate growth selection, single substitutions
Added: (+)-ABA 710 µM
Relative to: wild-type fitted maximum
Reading: higher = stronger binding
Parent: PYL1, truncated, DHFR fusion (Arabidopsis thaliana); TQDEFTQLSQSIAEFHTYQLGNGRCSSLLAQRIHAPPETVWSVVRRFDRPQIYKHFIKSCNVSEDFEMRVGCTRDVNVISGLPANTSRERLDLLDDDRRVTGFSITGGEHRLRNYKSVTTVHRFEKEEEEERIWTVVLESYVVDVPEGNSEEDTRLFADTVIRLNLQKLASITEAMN; partner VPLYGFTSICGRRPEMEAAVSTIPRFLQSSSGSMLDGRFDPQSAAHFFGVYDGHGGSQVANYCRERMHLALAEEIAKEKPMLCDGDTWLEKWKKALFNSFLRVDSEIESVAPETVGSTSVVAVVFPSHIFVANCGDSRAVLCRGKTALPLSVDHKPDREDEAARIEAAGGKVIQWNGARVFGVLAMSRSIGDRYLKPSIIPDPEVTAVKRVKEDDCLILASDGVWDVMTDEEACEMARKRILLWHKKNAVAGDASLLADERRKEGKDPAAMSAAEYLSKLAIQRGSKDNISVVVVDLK
Variant	relative binding score
L169T	19.6%
R98C	96.9%
D3F	101%
T106V	110%
E38R	86.3%
G71P	71.2%
P50A	60.9%
G71I	1.68%
S59W	91.6%
L164P	15.1%
H34Y	100%
S171P	23.2%
T135N	0.563%
Q7P	97.9%
V40G	-10.8%
Q2T	89.2%

Block 2
Target: CCND2, cyclin fold, Cln2 fusion (human)
Technique: yeast growth competition, sequencing
Sample: yeast
Notes: weak parent motif
Relative to: not given
Reading: higher = stronger binding
Parent: CDC25A docking peptide (human); PPHRRRLLFACSP; partner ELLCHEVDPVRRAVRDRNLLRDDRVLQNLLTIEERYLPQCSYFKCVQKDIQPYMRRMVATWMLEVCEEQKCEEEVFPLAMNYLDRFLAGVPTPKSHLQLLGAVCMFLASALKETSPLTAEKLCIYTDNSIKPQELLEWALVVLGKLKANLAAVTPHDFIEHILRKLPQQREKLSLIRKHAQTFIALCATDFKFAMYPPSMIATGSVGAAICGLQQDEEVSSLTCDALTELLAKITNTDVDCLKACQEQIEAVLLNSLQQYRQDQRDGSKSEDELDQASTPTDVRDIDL
Variant	normalised enrichment score
L8D	0.308
C11E	0.315
H3Y	0.148
R5L	0.405
R4M	-0.132
H3G	0.131
R6A	0.00684
R6W	0.789
R5N	-0.26
R5P	-0.0262
H3I	0.19
R4H	-0.115
C11W	0.0953
C11P	0.375
L7D	0.0869
R4W	-0.223

Block 3
Target: Sal-like protein 4, full length isoform B (SALL4, Homo sapiens, UniProt Q9UJQ4-2, residues 1-616)
Technique: universal PBM
Form: double-stranded DNA, one strand shown
Sample: in vitro
Concentration: not given
Notes: 8-mer, flanks averaged, mean of replicates
Reading: higher = stronger binding
Sequence	E-score
CGTCCGTC	-0.326
AACAGCTA	0.0615
TAGCTTGA	-0.183
CTTTAATC	0.16
CTGGCTGC	-0.31
CGTAGGAG	-0.104
CATGAGCC	-0.132
CATTTGTC	0.205
AGTACATG	0.0357
AAACATCT	0.201
AGGCACAA	0.0299
AGCTGACC	-0.187
ATTATTCG	0.344
ACTAGGTC	-0.14
CCGCACGA	-0.105
ATGGCGGC	-0.17
CTATAGTC	0.118
GCCGCCTA	-0.33
GGTAATGA	0.144
CAAGATGG	-0.0658
CGTGAAAG	0.126
AGCTGGCC	-0.161
AACCCGAA	-0.0887
GGCGAGTA	-0.172
AAGCGCCC	-0.292

Block 4
Target: RNA binding protein fox-1 homolog 2, RRM domain, GST-SBP tag (RBFOX2, Homo sapiens, UniProt O43251-10, residues 100-194)
Technique: RNA Bind-n-Seq
Form: RNA
Sample: in vitro
Concentration: 365 nM
Notes: natural RNA segment, single round, ends assumed
Relative to: no-protein control
Reading: higher = stronger binding
All sequences stand within: GGGAGUUCUACAGUCCGACGAUC … UGGAAUUCUCGGGUGCCAA
Residues (chain): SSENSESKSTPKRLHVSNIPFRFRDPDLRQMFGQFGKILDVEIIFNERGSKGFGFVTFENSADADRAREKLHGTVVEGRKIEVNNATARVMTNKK
Sequence	RBNS enrichment (R)
AUGGAAAACCGGGGUGUCUCCCGCACAGCUUCCCAGGAGUCAGGUGGGACCCAGGCGUGGGGGGACCUUUCUGCCCCACAUUCCUGGCAUUCCCCCCAAGUUUAUUUCUA	0.154
CAUCUCCAGGAGGGCCCGGGGCUCCUGCGUCCCUCGGGGUCUGUCAUGUGACCUGUUUGGCCCCUAACUGUCCCUUCUUUUCACUGCUUCUGUCUGACACCAUCUCCCUU	1.06
UAAGUAUGAGCCUACUGUUUUGUUUCCUAGUCCCAUGGACAAGUAGCAUACCAGGGGGCAAGAAGCUGAGCUGCUGGGGAGAGUCAGGGGAACUAAGAGCUUAGAAGGAG	1.42
GAGUGGGGGGCAGCAAGAUGCCAUUUCUGCAUCUCCCAGAAGGGAUGAGUCUUUGUCCCGAUGCAAGCCCCCUCUUCGCUGGGCUCCCAGCAGUGCUUCCCUCCUCCACC	0.193
UUAACACUGCUGUGGUAAAUCCACGGUCCAAGCCCAGGCGGGCUGAGAAGAGAGAUGGCCUGAGCAGGAACGGAGCUCUCCUCAGUUGGAAGCAAUGUGGGGCGCUGCGA	0.411
GGAGGGGAAGCCCCUUCUCCGGGGACCUUAUCUGUGGACUCAGGAAUGAUGGUGUUUAUUGCAAAUGCACAAUCUUUUUCCCAUUGAAAUGUCAUCACACUGGAAAUUGU	0.496
GGCCAACUAAUAUAAAAUACCAUUGUUAAAGAAUGGUACUUUUAUAAACAUUAGUGUAUUUAUUUCCUAUGUGUUAAUAUGAAGAUCAGAAAUUAUUUUUUGCACUUUGG	0.701
AUCCAGAUGUGAGCCCAGCCAGGGUCCUAUGGUUCCAAAUCUGAAGAAAAGGUUUUUCACACACUCCUUGCUUUCUGCUAAGAUAAGAAAGGCGUCACUCUGCCAGAGUG	0.255
UAGAAAGCCUUUCUAUUUUUUGGUGCGGGAGGGAAGACCUCUCACUUAGGGCAAGAGCCAGGUAUAGUCUCCCUUCCCAGAAUUUGUAACUGAGAAGAUCUUUUCUUUUU	0.52
UGAUUCUGUUCUCGCUUUUAAAGGAUGCUGAGAUGGUGAUGUUACUCUCCAUUUUUGGUACCAGUUCUGAGACUGUAAGACUUUUCAUCUGGGACUUUAGCACACACUGA	0.419
AAAGAGGAUGAUUUUCCUCAGAGAGAAGUGCCAGCGCCCUCCAGAGCUGUGAUCCAGGAUGGCAUGCUCACGUGCGGAAUGCAAUUUUGCCACCGGUUUGUAAUGUGGGU	1.06
GUUUUACAGCAGUUUUGAAAAACACAUACUAUGCCACCAAUUGUCAUAUUAUUUUUAGAUGAUGUAACAUAGCCAUCAAAAUUAAUAUUAUGUAAUGCCUAAUACUUAGU	0.846

Block 5
Target: Cyclic AMP-responsive element-binding protein 1 (CREB1, Homo sapiens, UniProt P16220, residues 1-327, full length assumed)
Sequence of UniProt P16220 (whole entry, looked up): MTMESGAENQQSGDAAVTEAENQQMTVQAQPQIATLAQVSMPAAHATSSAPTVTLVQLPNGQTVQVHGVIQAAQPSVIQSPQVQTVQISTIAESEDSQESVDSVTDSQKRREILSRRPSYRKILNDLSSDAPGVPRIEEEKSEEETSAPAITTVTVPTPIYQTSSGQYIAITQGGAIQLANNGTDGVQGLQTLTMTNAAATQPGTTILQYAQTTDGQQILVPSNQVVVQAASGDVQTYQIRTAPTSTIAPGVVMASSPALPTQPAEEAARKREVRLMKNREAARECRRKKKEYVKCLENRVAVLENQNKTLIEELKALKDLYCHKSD
Technique: protein-binding microarray
Form: double-stranded DNA, one strand shown
Sample: in vitro
Concentration: not given
Notes: k-mer, scored over probes, only values ≥0.25
Reading: higher = stronger binding
Sequence	E-score
ACGCAAT	0.273
TATGACA	0.304
GACGTGA	0.294
CACAATA	0.257
CTGACGC	0.311
ACGTCAG	0.474
ACTGTTA	0.258
TTACGAA	0.257
CTTTTTA	0.266
AATATAT	0.308
CTGTTAC	0.26
ATGATTA	0.26
TACGTCA	0.496
TAGTACA	0.252
CACGTCA	0.489
ATACGTG	0.27
CGTCACC	0.458
CAAAAAA	0.256
CGTCATC	0.488
TACACAA	0.268
TACATGA	0.318
ACATACA	0.291
AACATAC	0.257
CGTGTGA	0.267

Repeated from above (block 5):
Sequence	E-score
TACGTCA	0.496
CTGTTAC	0.26
AATATAT	0.308
ACGCAAT	0.273
ACATACA	0.291
TACATGA	0.318
CGTGTGA	0.267
TATGACA	0.304
ATGATTA	0.26
AACATAC	0.257
